Measured values pooled from the literature.
Parts stem from different laboratories: compare values within a part only.
Sequence of UniProt Q9UPE1 (whole entry, looked up): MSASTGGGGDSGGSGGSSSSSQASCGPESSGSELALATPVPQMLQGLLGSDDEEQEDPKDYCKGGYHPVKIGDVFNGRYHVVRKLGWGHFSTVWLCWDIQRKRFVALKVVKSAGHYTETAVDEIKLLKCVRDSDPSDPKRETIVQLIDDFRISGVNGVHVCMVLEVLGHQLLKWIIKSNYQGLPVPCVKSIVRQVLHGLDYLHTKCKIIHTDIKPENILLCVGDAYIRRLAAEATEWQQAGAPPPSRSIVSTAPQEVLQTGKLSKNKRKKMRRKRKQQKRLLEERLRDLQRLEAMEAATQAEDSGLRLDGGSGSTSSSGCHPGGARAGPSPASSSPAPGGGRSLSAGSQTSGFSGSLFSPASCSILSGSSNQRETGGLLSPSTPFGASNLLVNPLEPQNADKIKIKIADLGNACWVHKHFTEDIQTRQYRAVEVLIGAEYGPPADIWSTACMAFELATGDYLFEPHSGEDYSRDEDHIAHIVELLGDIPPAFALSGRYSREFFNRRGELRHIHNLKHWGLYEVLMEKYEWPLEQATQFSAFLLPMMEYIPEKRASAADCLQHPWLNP
Sequence of UniProt P11802 (whole entry, looked up): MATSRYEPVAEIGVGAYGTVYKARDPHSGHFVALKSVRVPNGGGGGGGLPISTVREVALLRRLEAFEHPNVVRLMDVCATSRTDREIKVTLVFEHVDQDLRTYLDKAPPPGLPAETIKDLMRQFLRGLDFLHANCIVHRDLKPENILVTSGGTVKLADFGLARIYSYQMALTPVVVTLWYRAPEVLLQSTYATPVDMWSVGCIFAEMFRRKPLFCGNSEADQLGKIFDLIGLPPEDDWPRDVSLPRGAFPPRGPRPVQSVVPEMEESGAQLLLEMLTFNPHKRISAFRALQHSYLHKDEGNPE
Sequence of UniProt Q99755 (whole entry, looked up): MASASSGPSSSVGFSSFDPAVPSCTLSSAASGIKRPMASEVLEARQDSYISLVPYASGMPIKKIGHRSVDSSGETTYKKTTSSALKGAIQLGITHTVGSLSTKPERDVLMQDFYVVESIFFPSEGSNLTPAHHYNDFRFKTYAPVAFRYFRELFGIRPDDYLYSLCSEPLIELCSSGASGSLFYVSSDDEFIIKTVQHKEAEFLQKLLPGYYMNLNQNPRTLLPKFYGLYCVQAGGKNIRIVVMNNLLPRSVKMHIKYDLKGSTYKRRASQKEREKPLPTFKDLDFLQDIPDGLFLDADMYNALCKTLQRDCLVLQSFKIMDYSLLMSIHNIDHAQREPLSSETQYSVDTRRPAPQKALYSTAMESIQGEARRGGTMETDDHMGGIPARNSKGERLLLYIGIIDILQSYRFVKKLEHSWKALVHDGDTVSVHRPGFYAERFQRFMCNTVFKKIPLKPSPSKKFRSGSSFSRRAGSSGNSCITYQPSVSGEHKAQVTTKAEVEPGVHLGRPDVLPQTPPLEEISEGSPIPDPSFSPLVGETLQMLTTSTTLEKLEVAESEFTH
Sequence of UniProt Q92918 (whole entry, looked up): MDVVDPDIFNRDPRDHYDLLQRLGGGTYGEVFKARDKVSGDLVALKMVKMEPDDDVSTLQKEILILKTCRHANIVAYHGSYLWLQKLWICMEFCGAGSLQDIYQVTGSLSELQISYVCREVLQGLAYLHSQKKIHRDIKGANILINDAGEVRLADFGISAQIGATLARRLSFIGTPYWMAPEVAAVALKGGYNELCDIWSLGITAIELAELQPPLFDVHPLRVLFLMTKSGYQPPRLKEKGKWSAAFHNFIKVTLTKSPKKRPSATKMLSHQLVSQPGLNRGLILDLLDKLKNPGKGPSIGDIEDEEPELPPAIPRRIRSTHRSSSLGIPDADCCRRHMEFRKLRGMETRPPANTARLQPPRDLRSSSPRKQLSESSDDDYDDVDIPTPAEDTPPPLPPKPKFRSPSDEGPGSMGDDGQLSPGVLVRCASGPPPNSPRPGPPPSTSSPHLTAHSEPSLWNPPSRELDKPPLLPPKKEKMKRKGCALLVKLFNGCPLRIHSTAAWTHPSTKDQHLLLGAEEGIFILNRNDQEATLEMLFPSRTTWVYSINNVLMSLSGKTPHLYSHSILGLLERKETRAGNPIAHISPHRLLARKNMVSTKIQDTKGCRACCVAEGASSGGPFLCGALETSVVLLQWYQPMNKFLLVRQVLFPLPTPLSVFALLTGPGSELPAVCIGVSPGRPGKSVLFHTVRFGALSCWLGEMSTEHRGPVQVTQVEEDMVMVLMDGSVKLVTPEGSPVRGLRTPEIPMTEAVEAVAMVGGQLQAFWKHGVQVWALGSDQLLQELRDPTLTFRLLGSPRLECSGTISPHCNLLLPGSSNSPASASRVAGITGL
Sequence of UniProt Q8NFD2 (whole entry, looked up): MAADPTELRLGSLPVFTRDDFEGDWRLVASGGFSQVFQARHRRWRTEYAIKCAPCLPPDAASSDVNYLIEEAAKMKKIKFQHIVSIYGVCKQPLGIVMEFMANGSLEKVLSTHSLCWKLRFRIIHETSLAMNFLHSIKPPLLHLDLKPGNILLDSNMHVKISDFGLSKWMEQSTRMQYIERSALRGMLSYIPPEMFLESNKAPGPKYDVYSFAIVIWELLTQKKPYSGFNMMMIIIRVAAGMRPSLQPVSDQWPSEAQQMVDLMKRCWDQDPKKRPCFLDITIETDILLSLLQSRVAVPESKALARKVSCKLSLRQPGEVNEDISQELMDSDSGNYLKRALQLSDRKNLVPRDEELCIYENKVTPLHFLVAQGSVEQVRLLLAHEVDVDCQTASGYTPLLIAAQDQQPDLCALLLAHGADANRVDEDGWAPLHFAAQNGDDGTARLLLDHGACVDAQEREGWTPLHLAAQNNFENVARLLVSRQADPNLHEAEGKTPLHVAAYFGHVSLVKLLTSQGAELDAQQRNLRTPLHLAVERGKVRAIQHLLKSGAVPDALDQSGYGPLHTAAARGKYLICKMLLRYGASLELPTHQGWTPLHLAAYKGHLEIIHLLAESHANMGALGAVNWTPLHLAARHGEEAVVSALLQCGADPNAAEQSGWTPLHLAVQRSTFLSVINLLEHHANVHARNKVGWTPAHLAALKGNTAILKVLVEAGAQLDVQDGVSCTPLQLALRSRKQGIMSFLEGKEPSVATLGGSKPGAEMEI
Sequence of UniProt Q16659 (whole entry, looked up): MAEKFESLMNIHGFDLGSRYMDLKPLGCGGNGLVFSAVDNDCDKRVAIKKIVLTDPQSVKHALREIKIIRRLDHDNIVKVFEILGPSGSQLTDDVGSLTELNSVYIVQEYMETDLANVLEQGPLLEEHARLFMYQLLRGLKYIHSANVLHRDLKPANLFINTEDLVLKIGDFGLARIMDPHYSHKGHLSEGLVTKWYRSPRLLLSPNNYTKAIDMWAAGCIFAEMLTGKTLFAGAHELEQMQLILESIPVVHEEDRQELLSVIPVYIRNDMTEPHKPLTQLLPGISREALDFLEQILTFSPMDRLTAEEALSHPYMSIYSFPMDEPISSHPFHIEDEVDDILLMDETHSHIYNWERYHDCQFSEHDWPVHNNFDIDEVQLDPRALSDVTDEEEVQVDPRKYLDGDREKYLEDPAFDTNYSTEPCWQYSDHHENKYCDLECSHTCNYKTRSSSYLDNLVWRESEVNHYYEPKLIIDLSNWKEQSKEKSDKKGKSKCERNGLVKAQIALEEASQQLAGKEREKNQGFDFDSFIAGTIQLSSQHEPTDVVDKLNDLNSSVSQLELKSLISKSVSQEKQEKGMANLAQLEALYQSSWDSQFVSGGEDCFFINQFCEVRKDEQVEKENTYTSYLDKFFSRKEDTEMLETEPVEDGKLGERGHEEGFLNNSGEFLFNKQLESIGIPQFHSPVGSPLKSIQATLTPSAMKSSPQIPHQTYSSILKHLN

Study 1 — tested at: 1 µM; endpoint: remaining binding
SMILES: C[C@H](c1ccc(F)cc1)N(Cc1cccc(C(=O)O)c1)C(=O)c1cnc2ccccc2c1
Mitogen-activated protein kinase kinase kinase 5 (MAP3K5, Homo sapiens, UniProt Q99683); cell-free assay, competition with immobilised ligand: 100%
Cyclin-dependent kinase 11B (CDK11B, Homo sapiens, UniProt P21127); cell-free assay, competition with immobilised ligand: 84%
Mitogen-activated protein kinase kinase kinase kinase 1 (MAP4K1, Homo sapiens, UniProt Q92918); cell-free assay, competition with immobilised ligand: 100%
Cyclin-dependent kinase 4 (CDK4, Homo sapiens, UniProt P11802); cell-free assay, competition with immobilised ligand: 97%
Tyrosine-protein kinase ABL1, phosphorylated (ABL1, Homo sapiens, UniProt P00519, F317I); binding: 100%
Ankyrin repeat and protein kinase domain-containing protein 1 (ANKK1, Homo sapiens, UniProt Q8NFD2); cell-free assay, competition with immobilised ligand: 81%
Phosphatidylinositol 4-phosphate 5-kinase type-1 alpha (PIP5K1A, Homo sapiens, UniProt Q99755); cell-free assay, competition with immobilised ligand: 100%
Serine/threonine-protein kinase MRCK alpha (CDC42BPA, Homo sapiens, UniProt Q5VT25); cell-free assay, competition with immobilised ligand: 100%
Mitogen-activated protein kinase kinase kinase kinase 3 (MAP4K3, Homo sapiens, UniProt Q8IVH8); cell-free assay, competition with immobilised ligand: 90%
Serine/threonine-protein kinase Sgk1 (SGK1, Homo sapiens, UniProt O00141); cell-free assay, competition with immobilised ligand: 81%
Serine/threonine-protein kinase 17B (STK17B, Homo sapiens, UniProt O94768); cell-free assay, competition with immobilised ligand: 80%
Mitogen-activated protein kinase 6 (MAPK6, Homo sapiens, UniProt Q16659); cell-free assay, competition with immobilised ligand: 100%
Serine/threonine-protein kinase 38-like (STK38L, Homo sapiens, UniProt Q9Y2H1); binding, competition with immobilised ligand: 100%
Bone morphogenetic protein receptor type-1A (BMPR1A, Homo sapiens, UniProt P36894); binding, competition with immobilised ligand: 100%
cAMP-dependent protein kinase catalytic subunit beta (PRKACB, Homo sapiens, UniProt P22694); cell-free assay, competition with immobilised ligand: 82%
Membrane-associated tyrosine- and threonine-specific cdc2-inhibitory kinase (PKMYT1, Homo sapiens, UniProt Q99640); cell-free assay, competition with immobilised ligand: 68%
LIM domain kinase 1 (LIMK1, Homo sapiens, UniProt P53667); cell-free assay, competition with immobilised ligand: 100%
Insulin-like growth factor 1 receptor (IGF1R, Homo sapiens, UniProt P08069); cell-free assay, competition with immobilised ligand: 100%
Ephrin type-B receptor 3 (EPHB3, Homo sapiens, UniProt P54753); cell-free assay, competition with immobilised ligand: 100%
SRSF protein kinase 3 (SRPK3, Homo sapiens, UniProt Q9UPE1); cell-free assay, competition with immobilised ligand: 92%

Study 2 — mode: antagonist; endpoint: IC50
Target: Beta-1 adrenergic receptor (ADRB1, Homo sapiens, UniProt P08588)
Sequence of UniProt P08588 (whole entry, looked up): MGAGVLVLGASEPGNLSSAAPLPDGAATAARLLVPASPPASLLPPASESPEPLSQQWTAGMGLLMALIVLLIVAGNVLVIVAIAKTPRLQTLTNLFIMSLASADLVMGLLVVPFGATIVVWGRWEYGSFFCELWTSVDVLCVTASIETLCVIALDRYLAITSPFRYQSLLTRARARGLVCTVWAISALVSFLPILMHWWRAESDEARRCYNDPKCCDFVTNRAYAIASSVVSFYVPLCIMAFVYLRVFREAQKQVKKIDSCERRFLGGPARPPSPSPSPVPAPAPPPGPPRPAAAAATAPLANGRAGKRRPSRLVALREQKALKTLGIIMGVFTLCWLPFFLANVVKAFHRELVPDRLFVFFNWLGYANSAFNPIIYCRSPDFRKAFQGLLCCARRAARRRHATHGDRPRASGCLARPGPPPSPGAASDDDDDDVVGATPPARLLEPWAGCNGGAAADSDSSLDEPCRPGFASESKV
COc1ncc(-c2nccc3c(=O)cc(N(C)c4ccccc4)oc23)cn1: ≥ 100 µM
COc1ccccc1C(=O)Nc1ccc2ccccc2n1: ≥ 100 µM
Clc1nc(NCc2cccs2)c2[nH]cnc2n1: ≥ 100 µM
CCN1CCN(CC(O)COc2cccc(CNCCc3cccc(C)n3)c2)CC1 (stereo not drawn): ≥ 100 µM
CN(C)c1ccc(Nc2ncnc3sc4c(c23)CCCC4)cc1: ≥ 100 µM
COc1cc(CN2CCC(C)(C#N)CC2)ccc1OCC(O)CN1CCOCC1 (stereo not drawn): ≥ 100 µM
Cc1cccc(-c2n[nH]cc2-c2ccc(F)c(-c3cnn(CCO)c3)c2)n1: ≥ 100 µM
CN(Cc1cnn(C)c1)Cc1ccccc1OCC(O)CN1CCCCC1 (stereo not drawn): ≥ 100 µM
O=C(Cc1ccccc1)Nc1ccc([C@@H](O)[C@H]2COCC(=O)N2Cc2ccccn2)cc1: ≥ 100 µM
Cc1ccc(Nc2nc(N3CCOCC3)nc3nccnc23)c(C)c1: ≥ 100 µM
COc1ccc(C(O)Cn2ccn3nc(-c4ccc(C(C)C)cc4)cc3c2=O)cc1 (stereo not drawn): ≥ 100 µM
Cc1cc2c(-c3ccccc3C)nc(-c3c(C)noc3C)cc2[nH]1: 31.6 µM
Cc1ccccc1-c1n[nH]c2ncc(-c3cccc(O)c3)nc12: ≥ 100 µM
COc1cc(O)c2c3c(c(O)cc(C)c13)C(=O)OC2: ≥ 100 µM
COc1ccccc1-c1cc(-c2ccsc2)c2onc(C)c2n1: ≥ 100 µM
COc1cc(CNCC2CCOCC2)ccc1OCC(O)CN(C)C1CCCCC1 (stereo not drawn): ≥ 100 µM
Cc1[nH]c2ccc(C(=O)N3CCN(c4ccccc4Cl)CC3)cc2c1C: ≥ 100 µM
COc1ccccc1N1CCC(N2C(=O)C3CCCN3C2=O)CC1 (stereo not drawn): ≥ 100 µM

Study 3 — read-out: enzyme activity; mode: inhibitor; tested at: 10 µM; endpoint: inhibition
Target: Calcium/calmodulin-dependent protein kinase type II subunit alpha (CAMK2A, Homo sapiens, UniProt Q9UQM7)
Sequence of UniProt Q9UQM7 (whole entry, looked up): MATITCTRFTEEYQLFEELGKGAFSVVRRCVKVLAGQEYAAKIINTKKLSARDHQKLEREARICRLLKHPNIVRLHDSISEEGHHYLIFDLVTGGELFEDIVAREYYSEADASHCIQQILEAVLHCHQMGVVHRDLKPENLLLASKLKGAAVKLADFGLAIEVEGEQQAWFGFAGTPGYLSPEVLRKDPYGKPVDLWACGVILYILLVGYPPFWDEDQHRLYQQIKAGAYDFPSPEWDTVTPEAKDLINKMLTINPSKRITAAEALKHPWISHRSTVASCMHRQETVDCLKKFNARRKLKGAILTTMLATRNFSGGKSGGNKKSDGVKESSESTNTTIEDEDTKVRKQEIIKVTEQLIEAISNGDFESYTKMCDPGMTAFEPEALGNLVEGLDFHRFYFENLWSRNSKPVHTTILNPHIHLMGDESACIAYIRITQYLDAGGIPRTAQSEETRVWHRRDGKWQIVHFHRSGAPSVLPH
Cc1ccc(=O)n(-c2ccccc2)c1: -5%
C=C(CC)C(=O)c1ccc(OCC(=O)O)c(Cl)c1Cl: 10%
CC(=O)CCc1ccc(O[C@@H]2O[C@H](CO)[C@@H](O)[C@H](O)[C@H]2O)cc1: -47%
O=Cc1cccc(O)c1: 12%
COc1cc(CC(=O)C(=O)O)ccc1O: -16%
COc1ccc2c(c1OC)CN(C)CCc1cc3c(cc1C(=O)C2)OCO3: -6%
N[C@@H](Cc1ccc(O)cc1)C(=O)O: -9%
O=C(CC(=O)c1ccccc1)c1ccccc1: -7%

Study 4 — read-out: enzyme activity; mode: inhibitor; tested at: 0.5 µM; baseline: control; endpoint: remaining activity
Target: SRSF protein kinase 3 (SRPK3, Homo sapiens, UniProt Q9UPE1)
COc1ccc(Cl)cc1NC(=O)Nc1cc(C)nc2ccccc12: 104%
CN(C)CCCn1cc(C2=C(c3c[nH]c4ccccc34)C(=O)NC2=O)c2ccccc21: 86.9%
Cn1cc(/C=C2\C(=O)Nc3ccc(S(N)(=O)=O)cc32)c2ccccc21: 88.5%
Cc1nc(Nc2ncc(C(=O)Nc3c(C)cccc3Cl)s2)cc(N2CCN(CCO)CC2)n1: 102%
C[S+]([O-])c1ccc(-c2nc(-c3ccncc3)c(-c3ccc(F)cc3)[nH]2)cc1 (stereo not drawn): 99.4%
Cc1ccc(NC(=O)c2ccc(CN3CCN(C)CC3)cc2)cc1Nc1nccc(-c2cccnc2)n1: 98%
COc1cc2ncc(-c3ccccc3)nc2cc1OC: 91.1%
COc1cc2ncnc(N3CCN(C(=O)Nc4ccc(Oc5ccccc5)cc4)CC3)c2cc1OC: 97.3%
CCC(=O)Nc1ccc2ncnc(Nc3cccc(Br)c3)c2c1: 97%
CC(C)[C@H](CO)Nc1nc(Nc2cccc(Cl)c2)c2ncn(C(C)C)c2n1: 70.4%
CC(=O)O/N=C1/C(c2c(O)[nH]c3cc(Br)ccc23)=Nc2ccccc21: 93.9%

Repeated from above (study 2):
Cc1ccc(Nc2nc(N3CCOCC3)nc3nccnc23)c(C)c1: ≥ 100 µM
COc1ccc(C(O)Cn2ccn3nc(-c4ccc(C(C)C)cc4)cc3c2=O)cc1 (stereo not drawn): ≥ 100 µM
Cc1cc2c(-c3ccccc3C)nc(-c3c(C)noc3C)cc2[nH]1: 31.6 µM
Cc1ccccc1-c1n[nH]c2ncc(-c3cccc(O)c3)nc12: ≥ 100 µM
COc1cc(O)c2c3c(c(O)cc(C)c13)C(=O)OC2: ≥ 100 µM
COc1ccccc1-c1cc(-c2ccsc2)c2onc(C)c2n1: ≥ 100 µM
COc1cc(CNCC2CCOCC2)ccc1OCC(O)CN(C)C1CCCCC1 (stereo not drawn): ≥ 100 µM
